# Assay results gathered from unrelated publications.
# Lines come from different studies, so protocols differ. “And” joins repeats or separate records; there may be more than shown. ± marks the error that the study gave.
# CDK5 with p25: Cyclin-dependent kinase 5, with p25 (CDK5, Homo sapiens, UniProt Q00535)
# UniProt Q00535, sequence (whole entry, looked up): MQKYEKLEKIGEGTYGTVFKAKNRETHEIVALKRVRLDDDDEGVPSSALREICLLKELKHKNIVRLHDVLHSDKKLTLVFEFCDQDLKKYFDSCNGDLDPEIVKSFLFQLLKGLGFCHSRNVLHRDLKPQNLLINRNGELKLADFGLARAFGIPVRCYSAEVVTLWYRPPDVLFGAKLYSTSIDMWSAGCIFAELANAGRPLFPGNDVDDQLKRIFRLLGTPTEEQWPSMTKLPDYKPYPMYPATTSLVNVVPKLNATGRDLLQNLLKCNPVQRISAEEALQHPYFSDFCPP
# U2AF2: U2AF2 148-342 (Homo sapiens, UniProt P26368)
# UniProt P26368, sequence (whole entry, looked up): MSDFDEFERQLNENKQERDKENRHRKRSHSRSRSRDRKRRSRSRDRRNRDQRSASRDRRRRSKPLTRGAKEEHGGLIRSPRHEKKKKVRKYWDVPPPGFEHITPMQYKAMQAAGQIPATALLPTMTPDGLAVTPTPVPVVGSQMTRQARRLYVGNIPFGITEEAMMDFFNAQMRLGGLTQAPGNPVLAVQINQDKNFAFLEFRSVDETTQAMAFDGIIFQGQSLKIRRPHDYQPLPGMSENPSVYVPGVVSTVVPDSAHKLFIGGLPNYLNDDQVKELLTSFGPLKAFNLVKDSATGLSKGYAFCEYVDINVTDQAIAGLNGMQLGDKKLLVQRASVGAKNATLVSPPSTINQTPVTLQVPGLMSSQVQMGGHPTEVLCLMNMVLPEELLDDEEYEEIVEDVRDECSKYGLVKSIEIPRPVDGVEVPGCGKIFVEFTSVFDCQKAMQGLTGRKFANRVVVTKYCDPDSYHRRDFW
# B1: human RAB1A; sequence looked up; chain SSMNPEYDYLFKLLLIGDSGVGKSCLLLRFADDTYTESYISTIGVDFKIRTIELDGKTIKLQIWDTAGQERFRTITSSYYRGAHGIIVVYDVTDQESFNNVKQWLQEIDRYASENVNKLLVGNKCDLTTKKVVDYTTAKEFADSLGIPFLETSAKNATNVEQSFMTMAAEIKKRMGPGATAGGAEKSNVKIQSTPVKQSGGGCC
# B2: calponin-2, human; sequence looked up; chain SSTQFNKGPSYGLSAEVKNRLLSKYDPQKEAELRTWIEGLTGLSIGPDFQKGLKDGTILCTLMNKLQPGSVPKINRSMQNWHQLENLSNFIKAMVSYGMNPVDLFEANDLFESGNMTQVQVSLLALAGKAKTKGLQSGVDIGVKYSEKQERNFDDATMKAGQCVIGLQMGTNKCASQSGMTAYGTRRHLYDPKNHILPPMDHSTISLQMGTNKCASQVGMTAPGTRRHIYDTKLGTDKCDNSSMSLQMGYTQGANQSGQVFGLGRQIYDPKYCPQGTVADGAPSGTGDCPDPGEVPEYPPYYQEEAGY
# B3: chain MSEILPYGEDKMGRFGADPEGSDLSFSCRLQDTNSFFAGNQAKRPPKLGQIGRAKRVVIEDDRIDDVLKGMGEKPPSGV
# UniProt Q64663, sequence (whole entry, unmodified, looked up): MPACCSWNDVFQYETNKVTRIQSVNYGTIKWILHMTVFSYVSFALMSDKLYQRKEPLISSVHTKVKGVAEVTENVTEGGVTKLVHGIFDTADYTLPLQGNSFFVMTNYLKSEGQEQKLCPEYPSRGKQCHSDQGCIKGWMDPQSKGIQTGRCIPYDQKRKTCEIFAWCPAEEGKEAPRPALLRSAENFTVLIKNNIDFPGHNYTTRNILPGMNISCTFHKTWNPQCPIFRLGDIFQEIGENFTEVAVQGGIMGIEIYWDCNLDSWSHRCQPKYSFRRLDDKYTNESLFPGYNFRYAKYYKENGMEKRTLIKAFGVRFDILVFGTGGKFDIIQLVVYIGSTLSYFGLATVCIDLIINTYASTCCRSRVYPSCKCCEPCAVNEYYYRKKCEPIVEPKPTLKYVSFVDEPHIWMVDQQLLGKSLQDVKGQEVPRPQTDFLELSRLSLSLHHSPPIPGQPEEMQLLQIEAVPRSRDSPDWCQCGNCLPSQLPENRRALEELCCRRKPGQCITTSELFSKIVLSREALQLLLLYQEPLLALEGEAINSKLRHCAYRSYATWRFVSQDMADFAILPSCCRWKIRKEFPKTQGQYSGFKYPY
# UniProt Q9UQM7, sequence (whole entry, unmodified, looked up): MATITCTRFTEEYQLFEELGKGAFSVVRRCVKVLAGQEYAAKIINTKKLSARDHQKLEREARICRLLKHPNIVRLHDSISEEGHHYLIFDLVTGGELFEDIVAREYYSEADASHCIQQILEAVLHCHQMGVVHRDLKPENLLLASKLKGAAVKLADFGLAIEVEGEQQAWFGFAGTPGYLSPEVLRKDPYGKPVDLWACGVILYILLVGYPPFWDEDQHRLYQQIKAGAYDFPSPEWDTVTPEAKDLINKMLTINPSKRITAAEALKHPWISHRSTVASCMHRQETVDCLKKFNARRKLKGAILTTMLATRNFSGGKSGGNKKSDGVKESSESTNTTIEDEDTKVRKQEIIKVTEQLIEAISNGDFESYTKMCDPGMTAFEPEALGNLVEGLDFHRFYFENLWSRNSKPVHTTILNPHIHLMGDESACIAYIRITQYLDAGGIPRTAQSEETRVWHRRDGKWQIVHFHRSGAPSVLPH
# UniProt Q5ANA3, sequence (whole entry, looked up): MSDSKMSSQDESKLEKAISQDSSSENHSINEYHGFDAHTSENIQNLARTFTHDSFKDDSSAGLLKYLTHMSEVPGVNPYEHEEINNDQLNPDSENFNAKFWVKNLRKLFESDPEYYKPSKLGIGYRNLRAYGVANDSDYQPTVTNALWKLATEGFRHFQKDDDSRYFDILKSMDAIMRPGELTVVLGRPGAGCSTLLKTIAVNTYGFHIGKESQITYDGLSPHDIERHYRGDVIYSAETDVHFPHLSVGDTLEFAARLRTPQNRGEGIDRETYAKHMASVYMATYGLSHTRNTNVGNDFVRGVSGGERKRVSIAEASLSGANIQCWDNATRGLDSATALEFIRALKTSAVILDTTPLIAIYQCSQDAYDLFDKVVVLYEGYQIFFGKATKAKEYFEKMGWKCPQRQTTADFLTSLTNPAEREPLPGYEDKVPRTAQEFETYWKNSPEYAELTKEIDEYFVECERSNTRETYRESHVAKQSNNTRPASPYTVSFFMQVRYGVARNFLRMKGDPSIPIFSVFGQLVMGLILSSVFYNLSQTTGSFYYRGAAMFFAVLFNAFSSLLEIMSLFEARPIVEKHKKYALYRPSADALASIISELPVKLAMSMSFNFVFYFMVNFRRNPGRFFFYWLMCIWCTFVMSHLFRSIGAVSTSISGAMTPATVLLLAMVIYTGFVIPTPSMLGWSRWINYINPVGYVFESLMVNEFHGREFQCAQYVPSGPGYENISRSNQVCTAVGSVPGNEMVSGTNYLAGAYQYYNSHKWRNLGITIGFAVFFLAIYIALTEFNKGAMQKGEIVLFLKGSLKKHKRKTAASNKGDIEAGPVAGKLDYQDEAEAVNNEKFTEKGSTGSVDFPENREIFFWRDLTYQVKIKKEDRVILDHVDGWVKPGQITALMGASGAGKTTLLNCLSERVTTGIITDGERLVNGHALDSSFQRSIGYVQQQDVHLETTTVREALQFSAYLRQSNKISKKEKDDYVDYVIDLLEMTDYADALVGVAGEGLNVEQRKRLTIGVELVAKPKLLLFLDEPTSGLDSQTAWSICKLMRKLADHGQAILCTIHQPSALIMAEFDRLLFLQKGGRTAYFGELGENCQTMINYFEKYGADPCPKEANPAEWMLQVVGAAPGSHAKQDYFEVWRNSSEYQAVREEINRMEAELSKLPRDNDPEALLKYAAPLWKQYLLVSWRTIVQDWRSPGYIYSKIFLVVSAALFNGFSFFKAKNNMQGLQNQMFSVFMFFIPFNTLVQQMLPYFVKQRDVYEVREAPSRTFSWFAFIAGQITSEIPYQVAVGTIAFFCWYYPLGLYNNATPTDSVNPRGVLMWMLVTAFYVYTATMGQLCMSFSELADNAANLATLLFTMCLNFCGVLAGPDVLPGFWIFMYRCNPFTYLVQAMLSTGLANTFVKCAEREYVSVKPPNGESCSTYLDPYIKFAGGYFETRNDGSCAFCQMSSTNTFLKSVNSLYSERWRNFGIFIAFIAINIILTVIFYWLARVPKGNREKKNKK
Substance,tested on,assay,system,conditions,scale,quantity,value
B1 (human RAB1A),CYB5R4 knockout human cells,"PP6 interaction, 3xFLAG-PP6C IP-MS",,concentration not given,baseline: CYB5R4 KO over parental,log2 fold change,-0.1
KEAFWDRCLSVINLMSSKMLQINS,CDK5 with p25,"phosphotransferase activity, radiometric",peptide,"concentration not given, 10% DMSO, with: histone substrate",baseline: p5-WT peptide,activity change,9%
BzATP,"P2X purinoceptor 7 (P2rx7, Rattus norvegicus, UniProt Q64663, I214A/Q143A)","ion current, agonist, two-electrode voltage clamp",Xenopus oocytes,900 µM,,normalized current,0.99 and 0.97 and 0.9
KEAFWDRCLSVIQLMSSKMLQINA,CDK5 with p25,"phosphotransferase activity, radiometric",peptide,"concentration not given, 10% DMSO, with: histone substrate",baseline: p5-WT peptide,activity change,27%
human ME2 K81R,,"enzyme activity, NADH absorbance",,"with fumarate 3 mM, with: L-malate varied",,Hill coefficient,1.04 ± 0.02
"B2 (calponin-2, human)",PP6C (human),"co-immunoprecipitation, IP-MS",CYB5R4 knockout cells,concentration not given,baseline: CYB5R4 knockout over parental,log2 fold change,-1.86
B3,"Calcium/calmodulin-dependent protein kinase type II subunit alpha (CAMK2A, Homo sapiens, UniProt Q9UQM7, D135N/W214A)","binding, isothermal titration calorimetry",,,,ΔH,-6.02 kcal/mol and -5.95 kcal/mol
UUUCUUUUU (ssRNA),U2AF2,sequencing of bound RNA,RNA,motif only,,Kd,0.82 µM
human ME2 K57S,,"enzyme activity, NADH absorbance",,"with fumarate 3 mM, with: L-malate varied",,Hill coefficient,1 ± 0.01
H-KQGTGKVQK-OH,HeLa nuclei,"central DNA signal, confocal microscopy, PI staining",peptide,"mean of nuclei, with: MNase 10-2 U/mL",baseline: 0 U/mL MNase,normalised fluorescence intensity,0.423
KEAFWDRCLSVINAMSSKMLQINA,CDK5 with p25,"phosphotransferase activity, radiometric",peptide,"concentration not given, 10% DMSO, with: histone substrate",baseline: p5-WT peptide,activity change,42%
human ME2 R91A,,"enzyme activity, NADH absorbance",,"with fumarate 3 mM, with: L-malate varied",,Hill coefficient,1 ± 0.01
KEAFWDRCLSVINLMSTKMLQINA,CDK5 with p25,"phosphotransferase activity, radiometric",peptide,"concentration not given, 10% DMSO, with: histone substrate",baseline: p5-WT peptide,activity change,61%
AUUUCAUUU (ssRNA),U2AF2,sequencing of bound RNA,RNA,motif only,,Kd,7.57 µM
KEAFWDRCLSVINLMSSKCLQINA,CDK5 with p25,"phosphotransferase activity, radiometric",peptide,"concentration not given, 10% DMSO, with: histone substrate",baseline: p5-WT peptide,activity change,24%
human ME2 R70K,,"enzyme activity, activator, NADH absorbance",recombinant enzyme,"range over 0 to 5 mM, pH 7.4",baseline: wild type,activation fold,1.3
11-deoxycorticosterone,human CYP11B2,stopped-flow kinetic modelling,,"4-state closed model (best), with: 40-fold excess adrenodoxin",,association rate constant k4,1.635e+07 ± 31700 M⁻¹ s⁻¹
human ME2 I99V,,"enzyme activity, activator, NADH absorbance",recombinant enzyme,"range over 0 to 5 mM, pH 7.4",baseline: wild type,activation fold,1.4
milbemycin oxime,"CDR1 (Candida albicans, UniProt Q5ANA3)","binding, microscale thermophoresis",,5 µM,,fraction bound,102%

# Excerpt of the above:
Substance,tested on,assay,system,conditions,scale,quantity,value
UUUCUUUUU (ssRNA),U2AF2,sequencing of bound RNA,RNA,motif only,,Kd,0.82 µM
human ME2 K57S,,"enzyme activity, NADH absorbance",,"with fumarate 3 mM, with: L-malate varied",,Hill coefficient,1 ± 0.01
H-KQGTGKVQK-OH,HeLa nuclei,"central DNA signal, confocal microscopy, PI staining",peptide,"mean of nuclei, with: MNase 10-2 U/mL",baseline: 0 U/mL MNase,normalised fluorescence intensity,0.423
